Published values collected from several papers.
Each numbered part is a random draw from the data of one study; scales do not carry over between parts.

Study 1 — method: protein-binding microarray; form: double-stranded DNA, one strand shown; matrix: in vitro; tested at: 2200 nM top; setting: 60-bp whole probe; with: salmon DNA 0.4 mg/ml; baseline: random background probes; direction: higher = stronger binding; all sequences stand within: GCCTAGCAC … GTCTTGATTCGCTTGACGCTGCTG
Target: Interferon regulatory factor 7, full length, phosphomimetic (IRF7, Homo sapiens, UniProt Q92985, residues 1-503, S471D/S472D/S475D/S476D/S477D/S483D/S484D/S487D)
Construct (chain): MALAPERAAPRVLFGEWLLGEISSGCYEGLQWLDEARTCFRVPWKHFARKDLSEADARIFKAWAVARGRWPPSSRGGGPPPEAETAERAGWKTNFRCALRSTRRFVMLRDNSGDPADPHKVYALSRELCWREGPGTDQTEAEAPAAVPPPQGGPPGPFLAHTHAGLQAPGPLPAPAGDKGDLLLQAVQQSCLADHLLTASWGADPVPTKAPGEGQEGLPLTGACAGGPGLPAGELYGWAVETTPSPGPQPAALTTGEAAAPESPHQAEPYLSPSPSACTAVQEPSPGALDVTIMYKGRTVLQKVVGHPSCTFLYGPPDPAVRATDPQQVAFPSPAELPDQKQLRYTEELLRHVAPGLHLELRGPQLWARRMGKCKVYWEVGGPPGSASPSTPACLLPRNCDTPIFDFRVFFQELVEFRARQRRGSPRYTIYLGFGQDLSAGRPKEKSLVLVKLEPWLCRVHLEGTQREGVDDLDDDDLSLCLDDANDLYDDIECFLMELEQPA
Strand	fitted relative affinity [z-score]
TTAGGTTTCGGACTGGATTAGTGCTAG	2.81
GACGATCTGAGTATCGAGACGTGCTAG	0.00578
TTAGGTTTCCTTTTCATTTAGTGCTAG	4.07
TCATGTCCCTATTTAAGACTGTGCTAG	1.52
GACGAACTGAGTTGCGAGACGTGCTAG	-0.0654
TTAGATCTCAGTCTCGATTTGTGCTAG	1.39
GACGATCTCAGTTTCAAGACGTGCTAG	0.654
TCATATACCTGTATATCACTGTGCTAG	1.32
TCACATTGCCTGTTTTTCACTGTGCTA	2.29
GACGGTTTCGTGTATCGGGACGTGCTA	4.06
TTAGGTATCGATTTCGGTTAGTGCTAG	3.88
TCATTTTTGCATTGCTTACTGTGCTAG	3.5
TTAGGACTGGACTTGCGGTTAGTGCTA	-0.163
TTAGATTTCAGACTGGATCAGTGCTAG	-0.14
GACGAACTGAGTTTCGATACGTGCTAG	3.37
TTAGAACGGGGGTATCGATTAGTGCTA	1.05
TCCCCTCCGGGACCCGCCTCGTGCTAG	-0.0931
GACGGTATCCTTTTCCTCACGTGCTAG	1.51
TCCAATTACCTTTTCACTTTGTGCTAG	3.11
GTGCCTTTTTTTTTTTTTCTGTGCTAG	1.53
AGCATCTTCAAGACTCATAATGTGCTA	-0.349
ATAGATATCAGTATCGATTAGTGCTAG	0.47
TAAGGTTTCGGTTTCGGTTAGTGCTAG	17
TCAGTTTCTGATATGGTACTGTGCTAG	3.1
GACGGTTTGGGTTCCGGGACGTGCTAG	0.77

Study 2 — method: RNA Bind-n-Seq; form: RNA; matrix: in vitro; tested at: not given; baseline: input RNA pool; direction: higher = stronger binding
Target: RING finger protein unkempt homolog, zinc fingers 1-6, GST-SBP tag (UNK, Homo sapiens, UniProt Q9C0B0, residues 30-357)
Setting: RNA with constant flanks, human-mouse chimeric sites, ends assumed
All sequences stand within: GGGAGUUCUACAGUCCGACGAUC … CAACAGAGGAUUGAGCAUCA
Construct (chain): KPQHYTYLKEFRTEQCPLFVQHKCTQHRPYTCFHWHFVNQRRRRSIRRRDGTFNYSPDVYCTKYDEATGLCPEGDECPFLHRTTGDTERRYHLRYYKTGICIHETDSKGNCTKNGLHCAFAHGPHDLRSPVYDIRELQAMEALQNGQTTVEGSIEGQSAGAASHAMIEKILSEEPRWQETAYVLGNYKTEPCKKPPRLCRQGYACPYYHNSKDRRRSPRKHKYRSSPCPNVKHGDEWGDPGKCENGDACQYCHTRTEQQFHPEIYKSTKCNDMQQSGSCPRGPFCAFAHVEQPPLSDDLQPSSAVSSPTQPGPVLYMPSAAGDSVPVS
Strand	bound/input enrichment [ratio]
UCUGAGGUACCACUGAAGAGACCUUAAAAGAAUCAUUUGAGGGCUCUCGUUCGGGCAGAAUAGUCACUGAUCGGGAAACUGGUUCUUCCAAAGGGUUUGGUUUUGUAGACUUUAAUAGUG	0.78
GCAAAGGAUGAUGAGGCGGCAGCUGUUGCCCUUUCCUCUCUCGUUCAUGCUUUGGAUGAGUUAAACAUGGUCGCCAUCGUCCGAUAUGCUUAUGACAAAAGAGCUAAUCCUCAAGUCGGU	0.515
AUGGAACAUUUCGAUGCGUCACUCAGUACCUAUUUCAAGGCCUUCCUAGGCCCUCGAGAUACAAGAGUCAAAGGAUGGUUCCUCCUGGACAAUUACAUCCCUACGUUUGUCUGUUCUGUU	0.0763
CACAGAGGAGAUCUGCUGUUCCUCACAAAUUUCCGGGAGGACCCCAUCAGAGCUGGUGAAAUAGUUGUUUUUAAAGUUGAAGGAAGAGACAUUCCGAUAGUUCACAGAGUAAUCAAGGUU	3.95
AGCACAACCCCAGCAAAGCUAAGAAAUCCUUGCACAAGUGAACAAAACUGCACCAGCCCAUUUAGCUACAAAAAUGUGCUUAGUCUUACUGACAGAGGAGAGUUUUUCAAUGAACUUGUU	0.958
UUUGUAUUCAUGUUAAGCACACGUGCUGGUGGUCUGGGCAUCAAUCUUGCAACUGCUGAUGUAGUAAUUUUAUAUGACUCAGAUUGGAAUCCGCAAGUUGAUCUUCAGGCUAUGGACCGU	0.791
UUCUAGUAUGAUGGUGAUAUUGGCAAUUAUUAUUAUGGCCAGGGUCAUCCCAUGAAGCCUCAUAGAAUCCGCAUGACUCAUAACUUGCUGCUAAAUUAUGGUUUAUACCGAAAAAUGGAA	0.191
AGGAGGAGGUUAAAGGGUGAGAGUGGGAUGGAGGAUUGUGUCAUGGCUCUGGAGACACUGUUCAGUGUCCUGCUUUCUCUGUGCAGACUGAUGGCCCCUUACACGCCUUUUCUCACUGAG	0.129
AAGCAACGCAAACUUGAAACAAUUCGUUAUCUUGCAGCCUCAGUGUUCACUUGCUUGGCGAUAGCAUUGGGGUUUUAUAGGUUCUGGAAGGAGAACUUUAAUGCUCACUGCCGCUGCUGC	0.153
ACUCAGAGAUCCACCUCCCAAAGUGCUGGGAGUAAAGGUGUGGCCACUCAAUUCUCCUUGAUGGAUAUAUAUUUUUUUUAAUAUGAAUCUUCCUGUUCGUCCAGGGAGCAAGAACGGGUU	0.365
GUGACAGGUGUUAAGAUUUCCCCUCAGCAAAGAAGUGCAGUAGUCACAAUAAUCCCUUCUGUGGUGAGUGCCAGUCAGAUUGUGGAGCUGGUCCCAGACCUCAGUUUAGACAUGGGAACU	0.315

Study 3 — method: RNA Bind-n-Seq; form: RNA; matrix: in vitro; tested at: 365 nM; baseline: no-protein control; direction: higher = stronger binding
Target: RNA binding protein fox-1 homolog 2, RRM domain, GST-SBP tag (RBFOX2, Homo sapiens, UniProt O43251-10, residues 100-194)
Setting: natural RNA segment, single round, ends assumed
All sequences stand within: GGGAGUUCUACAGUCCGACGAUC … UGGAAUUCUCGGGUGCCAA
Target sequence (chain): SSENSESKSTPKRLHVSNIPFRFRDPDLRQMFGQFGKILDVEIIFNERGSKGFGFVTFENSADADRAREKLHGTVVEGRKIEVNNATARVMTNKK
Strand	RBNS enrichment (R)
CGGCUGCGACUUCAGAAGCGAGGCACAGGCGGUGUGGACACGGCUGCGGUGGGCGGGGUCUUCGACGUCUCCAACGCUGACCGCCUGGGCUUCUCAGAGGUGGAGCUGGU	0.599
GGAAUAGCCACCUCUUGACCAGUCAUGCCUGUGUGCAUGGACUCAGGGCCACGGCCUUGGCCUGGGCCACCGUGACAUUGGAAGAGCCUGUGUGAGAACUUACUCGAAGU	0.819
AUUCUGCUAAAAAUGGUCUUAGUUGUCUGAAAAGCCAGCUCUUGAACCUCUUCACAACAGUAUCAACACUGGCUUCUCCCGGUUCAUUUUAUGCGUGCGAGAAGUCAGUG	0.216
CAGUAGUUUUGUUUUAACAUGGUCUUUUUCAACUUUGUUUCCUGUUUAACUACAGAUGACUUCUGUUGUAGACUCACAAGUUUAACUGUUGUAUUAUAACAGUAUUACAU	0.308
GGAUAGCCGUGGCUUCAUUUAUCGUUUGCACCCAGGAGGCCUUGUAGUCUUCCAAUUGCAGGAGAUCAGCCCUACAGUGUAUUCUACGUGAACCAACAGGGCCUGGCCUU	0.391
AUGGACUUCAGGAUCCACUAGACAGUUUUCAGUUUGCUUGGAGGUAGCUGGGUAAUCAAAAAUGUUUAGUCAUUGAUUCAAUGUGAACGAUUACGGUCUUUAUGACCAAG	0.472
GCCCCUUGUUCAUUCUCCUUCCUUUUUCCUCCCGCUUCCCUCUCCAUGAAGUGAUUCUGUUGACAAUAAUGUAUACUGCGCGUUCUCUUCACUGGUUUAUCUGCAGAAAU	0.481
AAAAGAACCAAGGCCCGUAGGAACAAGGUGCUAUGAAUCUGAAACCAAGAGAAACCUCAGUUUGGCAUGGUUCUUCAGGGUAGCUUCCGAGUAGAAAUAGUCUGCUGCAA	0.362
AGUGCCUGUUUGGUAAGUAGGUUAGCAUUCAUCAUGAACUCUGAAAGCCAUUUCAGAGUUUGGCUGCUGCUCUGACCCUGCUGUGGUACAAAAAACAUGGAUUUUUUUUU	0.263
GUCGGGUCCUCAGAUCGCCUCUGACUUGUUACCACAACAAAUCAUUUUGAUUUCAGUGCCUGUUGGGGACUUGAUUUCUUCUCAGUUUUGUUUGUUUGUUUGUUUCCUUA	0.375
GACAGCCCCUUGUGCUGUGAGCAGAGCAGGCAGUGGCUCUGGAGGCUGCCUGUGGUCUCCUUCCGGCUGUGGCUGACAGUGGCUCUGGCCAGGGUUGCUUGGAGAAGGCU	0.447
UCCCUGCACAUUGGAAAUGAAUUACAGGCAGCUGUUCAAACUCUUCAGGCAGGAUUCCUGUGGACUUUGAGAUUCAUGUUACCUCAUCUUCUUUUUUAAACUGUACCCAA	0.512

Study 4 — method: protein-binding microarray; form: double-stranded DNA, one strand shown; matrix: in vitro; tested at: not given; direction: higher = stronger binding
Target: Protein C-ets-1 (ETS1, Homo sapiens, UniProt P14921, residues 1-441, full length assumed)
Setting: k-mer, scored over probes, only values ≥0.25
Residues (chain): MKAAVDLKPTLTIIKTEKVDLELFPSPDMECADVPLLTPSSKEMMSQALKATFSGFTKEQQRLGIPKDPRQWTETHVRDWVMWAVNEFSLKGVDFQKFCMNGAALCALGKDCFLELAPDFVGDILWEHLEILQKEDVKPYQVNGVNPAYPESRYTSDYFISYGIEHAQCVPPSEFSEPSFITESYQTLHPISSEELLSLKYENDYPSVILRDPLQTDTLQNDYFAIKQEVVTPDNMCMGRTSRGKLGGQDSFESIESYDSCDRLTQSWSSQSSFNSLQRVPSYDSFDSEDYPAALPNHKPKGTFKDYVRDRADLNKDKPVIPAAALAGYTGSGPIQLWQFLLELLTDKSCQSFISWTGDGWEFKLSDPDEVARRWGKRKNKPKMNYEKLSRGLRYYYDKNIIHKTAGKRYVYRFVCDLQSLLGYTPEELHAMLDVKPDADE
Strand	E-score
AACCGGAG	0.297
GGCCGGAC	0.377
AAGGAAGT	0.443
CGGTTCCC	0.267
TCCGGAAA	0.481
CCGGTAAA	0.392
CCCGGATA	0.453
AGACGGAT	0.374
CAACATCC	0.438
CGCCTTCC	0.289
AGGATGAG	0.33
GCAGCGGA	0.31
ATTCTTCC	0.304
CCGCCGGA	0.429
CCTTTCCG	0.414
AGGACGTC	0.281
AGCGGATA	0.444
CGGACGGC	0.279
GTCCGTCA	0.286
CCCCGGAC	0.312
CATCCGGG	0.482
ACAGTTCC	0.312
AATTTCCC	0.321
TACCCGGA	0.386

Some of these lines once more (study 1):
Strand	fitted relative affinity [z-score]
GACGATCTCAGTTTCAAGACGTGCTAG	0.654
TCACATTGCCTGTTTTTCACTGTGCTA	2.29
GACGATCTGAGTATCGAGACGTGCTAG	0.00578
GACGAACTGAGTTTCGATACGTGCTAG	3.37
TTAGGTTTCGGACTGGATTAGTGCTAG	2.81
TCATGTCCCTATTTAAGACTGTGCTAG	1.52
